Results collected from several papers.
Every numbered part comes from another study and shows a few of its results, in no order.
Chain of UniProt P10721 (whole entry, unmodified, looked up): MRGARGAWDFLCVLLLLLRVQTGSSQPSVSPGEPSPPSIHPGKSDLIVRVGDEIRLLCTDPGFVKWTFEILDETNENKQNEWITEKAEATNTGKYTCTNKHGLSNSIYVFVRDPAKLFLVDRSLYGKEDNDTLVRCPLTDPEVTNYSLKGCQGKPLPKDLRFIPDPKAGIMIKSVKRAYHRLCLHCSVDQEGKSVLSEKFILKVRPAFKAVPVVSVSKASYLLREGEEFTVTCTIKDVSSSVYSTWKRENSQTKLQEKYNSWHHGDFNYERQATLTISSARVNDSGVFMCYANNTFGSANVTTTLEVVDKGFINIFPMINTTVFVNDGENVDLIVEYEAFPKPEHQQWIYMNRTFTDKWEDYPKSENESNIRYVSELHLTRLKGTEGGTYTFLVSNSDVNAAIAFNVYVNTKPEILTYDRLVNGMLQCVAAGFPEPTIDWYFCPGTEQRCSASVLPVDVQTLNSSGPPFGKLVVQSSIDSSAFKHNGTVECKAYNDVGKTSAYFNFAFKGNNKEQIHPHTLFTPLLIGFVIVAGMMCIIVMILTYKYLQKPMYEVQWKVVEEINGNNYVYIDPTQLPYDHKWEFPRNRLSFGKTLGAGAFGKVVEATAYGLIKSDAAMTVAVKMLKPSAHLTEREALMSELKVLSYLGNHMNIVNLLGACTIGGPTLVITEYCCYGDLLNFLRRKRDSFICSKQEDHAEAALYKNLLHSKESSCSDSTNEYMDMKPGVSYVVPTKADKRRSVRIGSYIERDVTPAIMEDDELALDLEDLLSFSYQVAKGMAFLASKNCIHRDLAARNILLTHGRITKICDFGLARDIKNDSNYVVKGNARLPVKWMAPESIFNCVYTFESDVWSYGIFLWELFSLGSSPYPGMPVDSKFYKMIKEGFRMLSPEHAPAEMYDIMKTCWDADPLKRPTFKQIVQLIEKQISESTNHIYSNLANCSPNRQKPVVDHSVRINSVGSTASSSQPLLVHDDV
Chain of UniProt P19784 (whole entry, looked up): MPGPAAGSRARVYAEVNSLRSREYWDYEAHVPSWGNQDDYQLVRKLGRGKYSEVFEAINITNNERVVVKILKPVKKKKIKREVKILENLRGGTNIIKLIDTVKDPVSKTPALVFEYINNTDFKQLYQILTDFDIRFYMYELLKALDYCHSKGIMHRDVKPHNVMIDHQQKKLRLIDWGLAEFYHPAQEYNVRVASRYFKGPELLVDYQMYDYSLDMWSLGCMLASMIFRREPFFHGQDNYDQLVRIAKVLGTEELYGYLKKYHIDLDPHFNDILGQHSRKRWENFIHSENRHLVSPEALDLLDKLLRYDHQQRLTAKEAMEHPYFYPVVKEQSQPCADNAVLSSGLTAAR
Chain of UniProt Q15569 (whole entry, looked up): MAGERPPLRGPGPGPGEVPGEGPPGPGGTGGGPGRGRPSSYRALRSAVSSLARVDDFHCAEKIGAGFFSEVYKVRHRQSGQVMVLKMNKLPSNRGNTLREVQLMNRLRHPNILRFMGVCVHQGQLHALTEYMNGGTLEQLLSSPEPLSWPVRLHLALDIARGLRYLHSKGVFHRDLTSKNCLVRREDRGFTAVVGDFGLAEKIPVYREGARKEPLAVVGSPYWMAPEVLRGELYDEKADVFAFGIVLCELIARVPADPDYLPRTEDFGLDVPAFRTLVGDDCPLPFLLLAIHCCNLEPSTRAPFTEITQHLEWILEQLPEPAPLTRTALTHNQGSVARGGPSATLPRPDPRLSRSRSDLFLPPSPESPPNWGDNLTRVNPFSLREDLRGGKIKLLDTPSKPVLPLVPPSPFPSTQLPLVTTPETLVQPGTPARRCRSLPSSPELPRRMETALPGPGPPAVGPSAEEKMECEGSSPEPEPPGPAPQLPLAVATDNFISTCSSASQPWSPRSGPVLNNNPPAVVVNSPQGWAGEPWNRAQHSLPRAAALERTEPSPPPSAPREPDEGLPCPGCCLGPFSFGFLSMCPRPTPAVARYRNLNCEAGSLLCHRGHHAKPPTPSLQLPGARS
Chain of UniProt Q8TBX8 (whole entry, looked up): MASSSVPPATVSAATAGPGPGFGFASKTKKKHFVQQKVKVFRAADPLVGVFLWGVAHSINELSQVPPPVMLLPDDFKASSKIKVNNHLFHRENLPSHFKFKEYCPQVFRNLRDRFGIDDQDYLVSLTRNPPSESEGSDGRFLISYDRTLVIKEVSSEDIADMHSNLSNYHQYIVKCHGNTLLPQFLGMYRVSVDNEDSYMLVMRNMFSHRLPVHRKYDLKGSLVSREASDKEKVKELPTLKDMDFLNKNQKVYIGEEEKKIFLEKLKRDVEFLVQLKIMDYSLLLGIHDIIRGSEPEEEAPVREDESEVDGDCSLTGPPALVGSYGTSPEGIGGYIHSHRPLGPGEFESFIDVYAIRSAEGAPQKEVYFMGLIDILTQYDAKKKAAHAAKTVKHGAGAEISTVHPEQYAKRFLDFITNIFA
Chain of UniProt Q8NI60 (whole entry, looked up): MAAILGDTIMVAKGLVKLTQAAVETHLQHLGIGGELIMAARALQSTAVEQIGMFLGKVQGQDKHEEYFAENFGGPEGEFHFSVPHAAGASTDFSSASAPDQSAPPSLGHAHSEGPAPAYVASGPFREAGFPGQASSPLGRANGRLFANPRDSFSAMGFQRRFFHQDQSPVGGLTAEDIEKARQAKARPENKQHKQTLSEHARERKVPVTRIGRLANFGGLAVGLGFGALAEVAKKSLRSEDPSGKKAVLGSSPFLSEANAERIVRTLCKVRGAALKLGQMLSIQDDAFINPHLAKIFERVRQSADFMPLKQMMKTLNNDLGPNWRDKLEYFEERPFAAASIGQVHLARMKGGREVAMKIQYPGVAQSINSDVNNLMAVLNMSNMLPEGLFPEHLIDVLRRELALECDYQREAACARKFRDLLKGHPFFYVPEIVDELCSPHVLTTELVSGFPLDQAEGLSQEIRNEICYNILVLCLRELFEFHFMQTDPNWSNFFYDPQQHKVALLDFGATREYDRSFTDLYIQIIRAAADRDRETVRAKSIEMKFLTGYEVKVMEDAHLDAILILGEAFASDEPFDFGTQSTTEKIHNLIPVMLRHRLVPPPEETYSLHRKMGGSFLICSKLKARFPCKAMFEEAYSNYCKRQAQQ
Chain of UniProt O60285 (whole entry, looked up): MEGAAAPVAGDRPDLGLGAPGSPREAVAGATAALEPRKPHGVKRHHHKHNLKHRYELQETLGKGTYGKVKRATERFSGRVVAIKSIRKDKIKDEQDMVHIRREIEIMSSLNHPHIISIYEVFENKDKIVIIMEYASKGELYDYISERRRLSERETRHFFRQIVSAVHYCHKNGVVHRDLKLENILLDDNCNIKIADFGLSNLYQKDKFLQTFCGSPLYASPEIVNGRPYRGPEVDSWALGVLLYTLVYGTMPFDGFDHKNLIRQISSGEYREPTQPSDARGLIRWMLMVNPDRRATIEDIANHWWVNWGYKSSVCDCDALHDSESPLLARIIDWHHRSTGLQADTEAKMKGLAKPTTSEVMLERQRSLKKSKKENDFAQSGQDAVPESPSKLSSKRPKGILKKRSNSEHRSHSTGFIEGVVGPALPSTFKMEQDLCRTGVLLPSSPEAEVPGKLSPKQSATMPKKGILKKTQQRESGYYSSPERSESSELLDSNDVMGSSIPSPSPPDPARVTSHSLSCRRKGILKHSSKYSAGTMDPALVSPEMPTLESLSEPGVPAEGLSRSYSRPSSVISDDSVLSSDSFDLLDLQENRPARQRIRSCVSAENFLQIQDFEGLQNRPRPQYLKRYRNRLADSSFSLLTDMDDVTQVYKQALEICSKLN
Chain of UniProt Q9UBE8 (whole entry, looked up): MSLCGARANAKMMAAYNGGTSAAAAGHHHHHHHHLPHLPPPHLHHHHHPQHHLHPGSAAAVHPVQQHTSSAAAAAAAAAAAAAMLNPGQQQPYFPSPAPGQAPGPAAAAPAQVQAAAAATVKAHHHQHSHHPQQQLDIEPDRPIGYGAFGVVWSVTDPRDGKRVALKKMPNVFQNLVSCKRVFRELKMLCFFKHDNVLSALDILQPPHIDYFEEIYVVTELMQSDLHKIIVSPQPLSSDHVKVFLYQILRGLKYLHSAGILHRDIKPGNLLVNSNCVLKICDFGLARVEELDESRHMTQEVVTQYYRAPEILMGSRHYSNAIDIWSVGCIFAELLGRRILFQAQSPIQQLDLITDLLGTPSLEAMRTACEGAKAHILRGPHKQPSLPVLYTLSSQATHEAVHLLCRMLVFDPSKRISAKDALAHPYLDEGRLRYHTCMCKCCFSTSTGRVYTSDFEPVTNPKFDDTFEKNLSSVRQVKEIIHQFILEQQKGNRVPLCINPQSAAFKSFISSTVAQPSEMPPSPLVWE
Chain of UniProt O43293 (whole entry, looked up): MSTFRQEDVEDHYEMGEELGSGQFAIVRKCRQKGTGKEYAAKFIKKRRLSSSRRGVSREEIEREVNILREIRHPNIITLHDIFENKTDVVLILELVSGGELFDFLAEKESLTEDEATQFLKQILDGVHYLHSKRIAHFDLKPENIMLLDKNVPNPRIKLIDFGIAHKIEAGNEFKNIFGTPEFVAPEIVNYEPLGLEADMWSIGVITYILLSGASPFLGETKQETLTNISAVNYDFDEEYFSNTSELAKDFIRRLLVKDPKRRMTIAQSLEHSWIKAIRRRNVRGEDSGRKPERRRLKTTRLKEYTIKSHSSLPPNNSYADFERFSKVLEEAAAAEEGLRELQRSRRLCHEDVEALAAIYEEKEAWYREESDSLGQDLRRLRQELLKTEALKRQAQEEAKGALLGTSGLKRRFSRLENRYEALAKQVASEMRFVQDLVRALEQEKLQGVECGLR

Sample 1 — read-out: binding; concentration: 1 µM
Compound: CN1CCN(C(=O)c2ccc(NC(=O)Nc3ccc(N(C)c4ccnc(Nc5ccc(CS(C)(=O)=O)cc5)n4)cc3)cc2)CC1
target | assay | remaining binding
EPHA4 (Homo sapiens, UniProt P54764) | competition with immobilised ligand | 85%
PIK3CG (Homo sapiens, UniProt P48736) | – | 93%
DAPK3 (Homo sapiens, UniProt O43293) | – | 100%
MAPK13 (Homo sapiens, UniProt O15264) | competition with immobilised ligand | 100%
TSSK1B (Homo sapiens, UniProt Q9BXA7) | – | 96%
MAP3K19 (Homo sapiens, UniProt Q56UN5) | competition with immobilised ligand | 0%
EPHB4 (Homo sapiens, UniProt P54760) | competition with immobilised ligand | 85%
TESK1 (Homo sapiens, UniProt Q15569) | competition with immobilised ligand | 100%
CDK17 (Homo sapiens, UniProt Q00537) | competition with immobilised ligand | 91%
TEK (Homo sapiens, UniProt Q02763) | competition with immobilised ligand | 41%
GRK7 (Homo sapiens, UniProt Q8WTQ7) | – | 100%
SGK1 (Homo sapiens, UniProt O00141) | – | 57%
CSNK2A2 (Homo sapiens, UniProt P19784) | – | 63%
NLK (Homo sapiens, UniProt Q9UBE8) | competition with immobilised ligand | 80%
COQ8A (Homo sapiens, UniProt Q8NI60) | competition with immobilised ligand | 100%
ERN1 (Homo sapiens, UniProt O75460) | – | 25%

Sample 2 — read-out: cell-free assay; technique: competition with immobilised ligand; concentration: 1 µM
Compound: CC1=C(C#N)C(c2ccc3c(c2)c(NC(=O)c2ccccc2C)nn3C)C(C#N)=C(C)N1
target | remaining binding [%]
Mast/stem cell growth factor receptor Kit, autoinhibited (KIT, Homo sapiens, UniProt P10721) | 77
NTRK3 (Homo sapiens, UniProt Q16288) | 83
TGFBR1 (Homo sapiens, UniProt P36897) | 100
KIT (Homo sapiens, UniProt P10721, V559D) | 100
EIF2AK1 (Homo sapiens, UniProt Q9BQI3) | 100
PIP4K2C (Homo sapiens, UniProt Q8TBX8) | 92
Tyrosine-protein kinase ABL1, phosphorylated (ABL1, Homo sapiens, UniProt P00519, H396P) | 82
Ribosomal protein S6 kinase alpha-6, N-terminal kinase domain (RPS6KA6, Homo sapiens, UniProt Q9UK32) | 100
HIPK4 (Homo sapiens, UniProt Q8NE63) | 80
eIF-2-alpha kinase GCN2, C-terminal kinase domain (EIF2AK4, Homo sapiens, UniProt Q9P2K8, S808G) | 61
TLK2 (Homo sapiens, UniProt Q86UE8) | 100
CHEK2 (Homo sapiens, UniProt O96017) | 74
PRKAA1 (Homo sapiens, UniProt Q13131) | 77
PRKCI (Homo sapiens, UniProt P41743) | 66
NUAK1 (Homo sapiens, UniProt O60285) | 95

Sample 3 — host: human; sample: microsomes or S9; concentration: 2 µM; time: 0.5 h
Structure (SMILES) | remaining compound [%]
Cc1noc(/C=C/c2ccccc2F)c1S(=O)(=O)N1CCC(C(=O)Nc2ccc(S(N)(=O)=O)cc2)CC1 | 85
Cc1cc2c(c(O)c1-c1c(C)cc3c(c1O)C(=O)C(O)C3C(C)C)C(=O)C(O)C2C(C)C (stereo not drawn) | 55.7
CCCc1nc(C)c2c(Cl)nc3ccc(OC)nc3n12 | 8.42
COc1ccc(CC(=O)O)cc1Nc1ncc(Cl)c(Nc2ccccc2S(=O)(=O)C(C)C)n1 | 61.7
Cc1cc2oc(C(=O)N3CCN(C)CC3)c(C)c2cc1C | 0.0157
Fc1ccc(Nc2cnnc3c(Cl)cccc23)cc1 | 33.1
O=S(=O)(NCc1ccncc1O[C@H]1CCNC1)c1ccco1 | 80.3
CCN1C(=O)C2(CC(=O)Nc3c2cnn3-c2ccccc2Cl)c2cccc(C)c21 (stereo not drawn) | 0
Cn1nccc1C1CN(Cc2noc3c2CC(C)(C)CC3)CCO1 (stereo not drawn) | 13.3
Cc1cc(=O)n2nc(-c3cccs3)nc2n1CC(=O)N1CCN(C)CC1 | > 99
O=C(Nc1nnc(Cc2ccc3c(c2)OCO3)o1)c1cc2ccccc2o1 | 29.8
CCCC1(Cn2ccnc2-c2nccn2C)CCC1 | 0.145
CC(C)c1nc(NCCc2nnc3ccccn23)nc(N(C)C)n1 | 30
COC(=O)c1cc(NC(=O)CC2NCCNC2=O)cc(C(=O)OC)c1 (stereo not drawn) | 44
Cc1ccc(S(=O)(=O)N2CCN(C(=O)CN3CCOCC3)C2c2ccc(Cl)cc2Cl)cc1 (stereo not drawn) | 2.65
COC(=O)Cn1nc2c3c(C)c(C)sc3ncn2c1=O | 0.316
O=C(c1c(OCC2CC2)cc(=O)n2c1CCOCC2)N1CCN(c2ccccc2F)CC1 | 69.8
O=C(COc1ncnc2scc(-c3ccccc3)c12)c1ccc(S(=O)(=O)N2CCCC2)cc1 | 1.35

Sample 4 — read-out: enzyme activity; action: inhibitor; concentration: 0.5 µM; reference: control
Target: Cyclin-dependent kinase 5, with p35 (CDK5, Homo sapiens, UniProt Q00535)
Chain of UniProt Q00535 (whole entry, looked up): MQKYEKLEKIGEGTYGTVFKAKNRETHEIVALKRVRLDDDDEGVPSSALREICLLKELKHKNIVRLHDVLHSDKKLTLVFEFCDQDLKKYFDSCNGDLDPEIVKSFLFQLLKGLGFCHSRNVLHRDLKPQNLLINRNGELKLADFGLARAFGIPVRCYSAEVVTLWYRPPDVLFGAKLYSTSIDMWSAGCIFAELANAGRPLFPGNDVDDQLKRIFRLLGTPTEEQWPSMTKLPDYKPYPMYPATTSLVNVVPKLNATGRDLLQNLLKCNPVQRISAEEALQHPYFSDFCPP
Structure (SMILES) | remaining activity [%]
O=c1cc(-c2cccc3c2Sc2ccccc2S3)oc(N2CCOCC2)c1 | 99.5
COc1cc2c(cc1OC)-c1[nH]nc(Nc3cccc(F)c3)c1C2 | 102
COc1cc2ncnc(Nc3ccc(O)c(Br)c3)c2cc1OC | 99.6
CCN(CC)CCNC(=O)c1c(C)[nH]c(/C=C2\C(=O)Nc3ccc(Cl)cc32)c1C | 86.2
CN([C@@H](Cc1ccc(OS(=O)(=O)c2cccc3cnccc23)cc1)C(=O)N1CCN(c2ccccc2)CC1)S(=O)(=O)c1cccc2cnccc12 | 99.5
O=C(NC(NC(=S)Nc1ccc(F)c([N+](=O)[O-])c1)C(Cl)(Cl)Cl)C(c1ccccc1)c1ccccc1 (stereo not drawn) | 107
N#C/C(=C\c1ccc(O)c(O)c1)C(=O)NCc1ccccc1 | 99.8
c1ccc(-c2[nH]ncc2-c2ccnc3ccccc23)nc1 | 98.6
Nc1cccc(-c2cc3c(Oc4cccc(O)c4)ncnc3[nH]2)c1 | 72.2
Cc1cc2ncc(-c3ccccc3)nc2cc1C | 89.1
COc1cc2ncnc(Nc3cccc(Cl)c3)c2cc1OC | 91
Cn1nc2c3c(cccc31)C(=O)c1ccccc1-2 | 105
Ic1cccc(CSc2nnc(-c3ccncc3)o2)c1 | 102
O=C1C(Cl)=C(N2C(=O)CCC2=O)C(=O)c2ccccc21 | 93.7
c1ccc(-c2cnc(Nc3ccc(OCCN4CCCC4)cc3)s2)cc1 | 82.4
N#Cc1c(NC(=O)c2cccc3ccccc23)sc2c1CCCC2 | 105
CCOc1nc(NC(=O)Cc2cc(OC)ccc2OC)cc(N)c1C#N | 105
CCN(CC)C(=O)c1ccc(Nc2nc(OCC3CCCCC3)c3[nH]cnc3n2)cc1 | 77.1
Cc1nc2cc3nc(-c4cccs4)cnc3cc2n1C | 107
O=C(Nc1cccc(Nc2nccc(Nc3cccc(C(F)(F)F)c3)n2)c1)C1CC1 | 105
CN(C)C[C@H]1CCn2c(c(C3=C(c4cn(C)c5ccccc45)C(=O)NC3=O)c3ccccc32)C1 | 85.4
C[C@@H]1CCN(C(=O)CC#N)C[C@@H]1N(C)c1ncnc2[nH]ccc12 | 99.5
Cc1cn(-c2cc(NC(=O)c3ccc(C)c(Nc4nccc(-c5cccnc5)n4)c3)cc(C(F)(F)F)c2)cn1 | 105

Some of these lines once more (sample 4):
Structure (SMILES) | remaining activity [%]
COc1cc2ncnc(Nc3cccc(Cl)c3)c2cc1OC | 91
O=C1C(Cl)=C(N2C(=O)CCC2=O)C(=O)c2ccccc21 | 93.7
C[C@@H]1CCN(C(=O)CC#N)C[C@@H]1N(C)c1ncnc2[nH]ccc12 | 99.5
Ic1cccc(CSc2nnc(-c3ccncc3)o2)c1 | 102
c1ccc(-c2[nH]ncc2-c2ccnc3ccccc23)nc1 | 98.6
O=c1cc(-c2cccc3c2Sc2ccccc2S3)oc(N2CCOCC2)c1 | 99.5
